Assay results collected from several papers.
Compare with care: the assays were run in different laboratories.

SMILES	assay	system	conditions	how to read	adverse event incidence [%]
Cc1ccc(Sc2ccccc2N2CCNCC2)c(C)c1	TEAE blood in urine	healthy adult men	oral, 20 mg single dose, 10 days	–	0
NCCONC(=O)[C@@H]1CC[C@@H]2CN1C(=O)N2OS(=O)(=O)O	refers to: leading to dose reduction	healthy Chinese men	intravenous, 1 g, treatment-emergent	–	0
Cc1c(C(=O)O)ccc2c3n(nc12)[C@@H]1[C@H](C3)N(CC2CC2)[C@@]2(C(=O)Nc3cc(Cl)ccc32)[C@H]1c1cccc(Cl)c1F	phase Ia trial, refers to: Pyrexia	cancer patients	oral, dose not given, all patients grade ≥3	–	0
CC[C@H](C)CCCCC(=O)N[C@@H](CCN)C(=O)N[C@H](C(=O)N[C@@H](CCN)C(=O)N[C@H]1CCNC(=O)[C@H]([C@@H](C)O)NC(=O)[C@H](CCN)NC(=O)[C@H](CCN)NC(=O)[C@H](CC(C)C)NC(=O)[C@@H](Cc2ccccc2)NC(=O)[C@H](CCN)NC1=O)[C@@H](C)O	refers to: nervous system disorders	long-term haemodialysis patients	IV, 0.75 mg/kg	–	100
FC(F)(F)c1ccc(CNc2ccc(Cc3c[nH]c4ncc(Cl)cc34)cn2)cn1	refers to: periorbital oedema	patients with advanced solid tumours	oral, dose not given, grade 1 and 2, possibly related to drug	–	13
CC(C)n1c(Nc2cccnc2)nc2cnc(Nc3ccc(N4CCN(C)CC4)cc3)nc21	refers to: Dizziness	healthy male subjects	oral, 150 mg, with: rifampin	–	0
CC(=O)O[C@H]1C(=O)[C@@]2(C)[C@H]([C@H](OC(=O)c3ccccc3)[C@]3(O)C[C@H](OC(=O)[C@H](O)[C@@H](NC(=O)c4ccccc4)c4ccccc4)C(C)=C1C3(C)C)[C@]1(OC(C)=O)CO[C@@H]1C[C@@H]2O	refers to: Pruritus	patients with advanced solid tumours	intravenous, dose not given, all grades, possibly related to drug	–	11
O=C1CCc2ccc(OCCCCN3CCN(c4cccc(Cl)c4Cl)CC3)cc2N1	refers to: Xerostomia	patients, CYP2D6 intermediate metabolizers	dose not given, long-acting oral or depot	–	12
CNC(=O)c1ccc(-c2cnc3ncc(Cc4ccc5ncccc5c4)n3n2)cc1F	phase 1 clinical trial, refers to: upper abdominal pain	dose escalation cohort	oral, dose not given, grade 3 or 4	–	0
CC[C@H](C)[C@H](NC(=O)[C@H](Cc1ccccc1)NC(=O)[C@H](CCC(=O)O)NC(=O)[C@H](CCCCNC(=O)COCCOCCNC(=O)COCCOCCNC(=O)CC[C@H](NC(=O)CCCCCCCCCCCCCCCCC(=O)O)C(=O)O)NC(=O)[C@H](C)NC(=O)[C@H](C)NC(=O)[C@H](CCC(N)=O)NC(=O)CNC(=O)[C@H](CCC(=O)O)NC(=O)[C@H](CC(C)C)NC(=O)[C@H](Cc1ccc(O)cc1)NC(=O)[C@H](CO)NC(=O)[C@H](CO)NC(=O)[C@@H](NC(=O)[C@H](CC(=O)O)NC(=O)[C@H](CO)NC(=O)[C@@H](NC(=O)[C@H](Cc1ccccc1)NC(=O)[C@@H](NC(=O)CNC(=O)[C@H](CCC(=O)O)NC(=O)C(C)(C)NC(=O)[C@@H](N)Cc1cnc[nH]1)[C@@H](C)O)[C@@H](C)O)C(C)C)C(=O)N[C@@H](C)C(=O)N[C@@H](Cc1c[nH]c2ccccc12)C(=O)N[C@@H](CC(C)C)C(=O)N[C@H](C(=O)N[C@@H](CCCNC(=N)N)C(=O)NCC(=O)N[C@@H](CCCNC(=N)N)C(=O)NCC(=O)O)C(C)C	refers to: Fatigue	type 2 diabetes patients	dose not given	relative to: subjects	0

Some of these lines once more:
SMILES	assay	system	conditions	how to read	adverse event incidence [%]
FC(F)(F)c1ccc(CNc2ccc(Cc3c[nH]c4ncc(Cl)cc34)cn2)cn1	refers to: periorbital oedema	patients with advanced solid tumours	oral, dose not given, grade 1 and 2, possibly related to drug	–	13
